Experimental data gathered from unrelated publications.
Each numbered part is a random draw from the data of one study; scales do not carry over between parts. “And” joins repeats or separate records; there may be more than shown.

Block 1 — read-out: binding; technique: radioligand binding; tested at: 10 µM
Target: Muscarinic acetylcholine receptor M1 (CHRM1, Homo sapiens, UniProt P11229)
UniProt P11229, sequence (whole entry, looked up): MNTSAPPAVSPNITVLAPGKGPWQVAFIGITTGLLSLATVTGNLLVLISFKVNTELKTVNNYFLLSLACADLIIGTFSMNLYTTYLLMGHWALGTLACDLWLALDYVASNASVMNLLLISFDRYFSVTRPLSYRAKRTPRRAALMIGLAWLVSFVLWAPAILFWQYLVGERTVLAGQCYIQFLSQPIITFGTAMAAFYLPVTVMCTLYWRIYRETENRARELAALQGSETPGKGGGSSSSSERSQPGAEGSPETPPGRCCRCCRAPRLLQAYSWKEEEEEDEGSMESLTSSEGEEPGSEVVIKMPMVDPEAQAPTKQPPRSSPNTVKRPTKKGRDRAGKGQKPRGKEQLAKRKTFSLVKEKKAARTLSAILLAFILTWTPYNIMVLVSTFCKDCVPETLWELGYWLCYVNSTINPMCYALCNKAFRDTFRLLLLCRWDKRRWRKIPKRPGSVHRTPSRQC
| Structure (SMILES) | inhibition |
| --- | --- |
| O=C1c2ccc(Nc3ccc(F)cc3F)cc2CCc2ccc(OC[C@H](O)CO)cc21 | 45.5% |
| CC(=O)Nc1nc(CN2CCC[C@H](Cc3cc(C)nc(C)c3)C2)cs1 | 25.4% |
| C[C@H](NC(=O)c1cnc2n1[C@](C)(Cc1ccc(C#N)cc1)C(=O)N2c1cc(Cl)c(F)c(Cl)c1)C(=O)NC1(c2ccccn2)CC1 | -11.7% |
| CN1C(=O)[C@@H](N2CCc3cn(Cc4ccccc4)nc3C2=O)COc2ccccc21 | 0.6% |
| Cc1nccc(COC(=O)N2C[C@@H]3[C@@H](CNC(=O)c4ccc5[nH]nnc5c4)[C@@H]3C2)n1 | -23.9% |
| COCc1nc2cnc3cc(-c4c(C)noc4C)c(OC[C@H]4CCNC4)cc3c2n1[C@H](C)c1ccccc1 | -1.37% |
| Cc1nc(Cc2cccc(C(F)(F)F)c2)sc1-c1ccc(C(N)=O)nc1 | 10% |
| CC(=O)N1CCC(c2ccc(C(=O)NC(=N)N)cc2C(F)(F)F)CC1 | 12.4% |
| Cc1c[nH]c2nccc(Oc3c(F)cc(Nc4cc(Cl)nc(N)n4)cc3F)c12 | -0.22% |
| CCCOc1ccc([C@H]2[C@H](C(=O)O)[C@@H](c3ccc4c(c3)OCO4)CN2CC(=O)Nc2c(CC)cccc2CC)cc1 | -16.3% |
| Cc1c(N2CCCC2)nc2ccc(Br)cc2c1C(=O)NC[C@H](CCC(=O)O)c1ccccc1Cl | 14.3% |
| CC(C)CC(=O)N1CCc2nc(-c3ccc(Br)cc3)nc(N(C)Cc3ccccc3)c2C1 | 4.18% |
| O=C(Nc1cccnn1)N1CC(CC=Cc2cncc(Oc3ccc(C(F)(F)F)cn3)n2)C1 | -6.78% |
| CN([C@@H]1CCc2c(CC(=O)O)c3cc(S(C)(=O)=O)ccc3n2C1)S(=O)(=O)c1ccc(F)cc1 | -1.48% |
| CC1=C(C#N)[C@@H](c2ccc3[nH]nc(C)c3c2)C(C#N)=C(c2ccc(Cl)cc2)N1 | 8.17% |
| CC(=O)c1c(NS(C)(=O)=O)c2cc(-c3ccc(Cl)cc3)c(-c3ccc(Cl)cc3Cl)nc2n(C)c1=O | 3.28% |
| CN(C)C(=O)Cn1cc(-c2nc([C@@](C)(c3ccc(-c4cnc(N)nc4)cc3)C3CC3)no2)cn1 | -4.93% |
| O[C@]1(C(F)(F)F)CCCC[C@H]1Nc1ccc(F)cc1 | 8.3% |
| Cc1cc(C)c(-n2ccn3nc(-c4cccnc4)cc23)cc1NC(=O)c1cc(C#N)cc(S(F)(F)(F)(F)F)c1 | 24.8% |
| COc1cccc(CNC(=O)c2nc3scc(COCc4ccc(C(=O)O)cc4)c3c(=O)[nH]2)c1 | 53.4% |
| Nc1c(C(=O)NCc2ccc(C(=O)NCCCC3CCCCC3)cc2)cnn1-c1ccccc1 | 31.1% |
| COCCc1ccc(-c2c(C)nc3c(N4CCOCC4)ccnn23)cn1 | 2.83% |

Block 2 — read-out: binding; technique: phage display NGS; form: peptide; setting: panning round 2; baseline: input library
Target: UDP-N-acetylglucosamine--peptide N-acetylglucosaminyltransferase 110 kDa subunit (OGT, Homo sapiens, UniProt O15294)
Residues (O15294 1-1046): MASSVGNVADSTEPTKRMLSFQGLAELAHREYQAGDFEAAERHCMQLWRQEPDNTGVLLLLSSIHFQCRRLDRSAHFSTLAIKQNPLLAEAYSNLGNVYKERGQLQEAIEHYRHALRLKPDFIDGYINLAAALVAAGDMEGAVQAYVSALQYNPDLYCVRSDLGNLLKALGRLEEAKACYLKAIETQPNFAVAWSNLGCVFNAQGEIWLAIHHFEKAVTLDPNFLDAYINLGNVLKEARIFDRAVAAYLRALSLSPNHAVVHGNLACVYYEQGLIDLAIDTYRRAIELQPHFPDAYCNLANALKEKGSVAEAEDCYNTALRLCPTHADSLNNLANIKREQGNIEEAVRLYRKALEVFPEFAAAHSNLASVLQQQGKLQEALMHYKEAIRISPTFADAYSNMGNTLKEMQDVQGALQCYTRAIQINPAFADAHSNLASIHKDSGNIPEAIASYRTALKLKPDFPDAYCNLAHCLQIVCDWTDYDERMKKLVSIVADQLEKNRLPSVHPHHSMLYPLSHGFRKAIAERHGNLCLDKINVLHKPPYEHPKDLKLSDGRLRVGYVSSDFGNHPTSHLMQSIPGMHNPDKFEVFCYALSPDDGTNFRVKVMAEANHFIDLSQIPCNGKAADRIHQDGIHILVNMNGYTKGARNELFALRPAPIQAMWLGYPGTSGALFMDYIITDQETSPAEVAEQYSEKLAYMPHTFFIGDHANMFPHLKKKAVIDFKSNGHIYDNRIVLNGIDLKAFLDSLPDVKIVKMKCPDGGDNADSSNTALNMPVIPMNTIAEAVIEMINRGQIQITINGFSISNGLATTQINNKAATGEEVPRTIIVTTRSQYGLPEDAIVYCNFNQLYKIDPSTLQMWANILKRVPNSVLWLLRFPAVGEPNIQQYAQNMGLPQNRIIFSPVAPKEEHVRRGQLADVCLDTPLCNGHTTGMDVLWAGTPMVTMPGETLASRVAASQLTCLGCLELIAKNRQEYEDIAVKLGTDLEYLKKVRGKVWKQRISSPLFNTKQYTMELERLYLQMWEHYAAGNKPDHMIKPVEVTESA
| Sequence | minimum log2 enrichment ratio |
| --- | --- |
| TARNHHAAHYSLHRG | 3.36 |
| MQEYSPGYQIQFSKP | 2.94 |
| NLYRPQYQINFFDTI | 6.42 |
| KFMPVYQIIAEMGAF | 3.23 |
| DVYLHKHQRDHAYVA | 3.49 |
| VMELQFLPHYQIEAF | 3.31 |
| YTPLRHPMHEHDHNH | 3.3 |
| TNMYRYPTHAHFQIK | 2.1 |

Block 3 — read-out: RNA clamping; technique: fluorescence polarization; tested at: concentration not given; added: FAM-labelled poly r(AG)8 RNA
Target: Eukaryotic initiation factor 4A-III (Homo sapiens, UniProt P38919)
UniProt P38919, sequence (whole entry, looked up): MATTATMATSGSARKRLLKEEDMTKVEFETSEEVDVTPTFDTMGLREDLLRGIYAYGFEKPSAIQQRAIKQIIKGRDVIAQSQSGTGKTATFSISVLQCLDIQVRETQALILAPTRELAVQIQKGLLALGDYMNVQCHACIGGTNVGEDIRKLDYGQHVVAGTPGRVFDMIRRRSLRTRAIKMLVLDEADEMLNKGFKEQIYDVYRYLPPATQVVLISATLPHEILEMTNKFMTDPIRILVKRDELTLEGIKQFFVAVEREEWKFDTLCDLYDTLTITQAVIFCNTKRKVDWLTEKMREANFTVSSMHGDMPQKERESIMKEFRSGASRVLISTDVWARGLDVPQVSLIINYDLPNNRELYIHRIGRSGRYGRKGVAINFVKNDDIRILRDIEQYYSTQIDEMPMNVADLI
| SMILES | fluorescence polarization change |
| --- | --- |
| COc1ccc([C@@]23Oc4cc(OC)cc(OC)c4[C@]2(O)c2nc[nH]c(=O)c2[C@H]3c2ccccc2)cc1 | 9.1 mP |
| COc1ccc([C@@]23Oc4cc(OC)cc(OC)c4[C@]2(O)C(=O)C[C@H]3c2ccccc2)cc1 | 31.1 mP |
| CCCCC1=N[C@@]2(O)[C@H](C(=O)OC)[C@@H](c3ccccc3)[C@]3(c4ccc(OC)cc4)Oc4cc(OC)cc(OC)c4[C@]23N1 | 38.8 mP |
| COc1ccc([C@@]23Oc4cc(OC)cc(OC)c4[C@]2(O)[C@H](O)[C@H](C(=O)N(C)OC)[C@H]3c2ccccc2)cc1 | 1.9 mP and 68 mP |
| COc1ccc([C@@]23Oc4cc(OC)cc(OC)c4[C@]2(O)[C@@H](O)C[C@H]3c2ccccc2)cc1 | 12.8 mP |
| COC(=O)[C@@H]1[C@@H](c2ccccc2)[C@]2(c3ccccc3)Oc3ccccc3[C@@]1(O)[C@H]2O | -3.3 mP |
| COc1ccc([C@@]23Oc4cc(OC)cc(OC)c4[C@]2(O)c2nc(-c4cccnc4)[nH]c(=O)c2[C@H]3c2ccccc2)cc1 | 29.6 mP |
| [2H]C([2H])([2H])C1=N[C@@]2(O)[C@H](C(=O)OC)[C@@H](c3ccccc3)[C@]3(c4ccc(OC)cc4)Oc4cc(OC)cc(OC)c4[C@]23N1 | 31.9 mP |

Block 4 — organism: Plasmodium berghei; action: inhibitor; cell line: Huh-7; strain: GFP-expressing sporozoites, liver stage; tested at: 10 µM; time: 24 h; baseline: untreated control
| SMILES | infection rate |
| --- | --- |
| CCCC(C)(COC(N)=O)COC(=O)NC(C)C (centres unmarked) | 109% |
| CCC1(c2ccc(N)cc2)CCC(=O)NC1=O (centres unmarked) | 91.7% |
| C[C@]12CCC(=O)C=C1C=C[C@@H]1[C@@H]2CC[C@@]2(C)[C@H]1CC[C@@]2(O)CCC(=O)O | 576% |
| O=C1CCO1 | 91.2% |
| COC(=O)C1=CCCN(C)C1 | 99.2% |

Single results of other studies
ADRB1: Beta-1 adrenergic receptor (ADRB1, Homo sapiens, UniProt P08588)
UniProt P08588, sequence (whole entry, looked up): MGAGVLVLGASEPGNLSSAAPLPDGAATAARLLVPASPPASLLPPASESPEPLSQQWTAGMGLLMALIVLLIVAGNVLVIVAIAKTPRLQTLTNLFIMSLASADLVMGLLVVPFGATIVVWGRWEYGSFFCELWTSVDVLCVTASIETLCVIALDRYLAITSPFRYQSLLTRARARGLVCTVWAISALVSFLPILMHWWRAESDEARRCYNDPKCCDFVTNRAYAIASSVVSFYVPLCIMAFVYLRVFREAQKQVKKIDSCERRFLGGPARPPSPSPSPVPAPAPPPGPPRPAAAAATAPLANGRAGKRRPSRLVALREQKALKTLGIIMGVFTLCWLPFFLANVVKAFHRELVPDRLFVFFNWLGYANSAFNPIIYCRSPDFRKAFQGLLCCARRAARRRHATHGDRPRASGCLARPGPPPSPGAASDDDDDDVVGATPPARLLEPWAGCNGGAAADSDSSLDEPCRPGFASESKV
| Structure (SMILES) | tested on | assay | test system | setting | measurement | result |
| --- | --- | --- | --- | --- | --- | --- |
| c1cc(N2CCNCC2)c2cc[nH]c2c1 | ADRB1 | agonist |  |  | EC50 | ≥ 100 µM |
| COc1cc(/C=C2\C(=O)N=C(O)N=C2O)ccc1OCc1ccc(Cl)cc1 |  |  | mouse, microsomes or S9 | 2 µM, 0.5 h | remaining compound | 56.5% |
| CC1=C(C)C(=O)O[C@H]([C@](C)(O)C2(O)CC[C@@]3(O)[C@@H]4CC=C5CC=CC(=O)[C@]5(C)C4CC[C@]23C)C1 (some centres unmarked) | ADRB1 | agonist |  |  | EC50 | 35.5 µM |
| CC(=O)Nc1cccc(C2(C)C(=O)N(C)C(=O)N(C)C2=O)c1 |  |  | mouse, microsomes or S9 | 2 µM, 0.5 h | remaining compound | 81.5% |

A few entries again (single results of other studies):
| Structure (SMILES) | tested on | assay | test system | setting | measurement | result |
| --- | --- | --- | --- | --- | --- | --- |
| c1cc(N2CCNCC2)c2cc[nH]c2c1 | ADRB1 | agonist |  |  | EC50 | ≥ 100 µM |
| COc1cc(/C=C2\C(=O)N=C(O)N=C2O)ccc1OCc1ccc(Cl)cc1 |  |  | mouse, microsomes or S9 | 2 µM, 0.5 h | remaining compound | 56.5% |
| CC1=C(C)C(=O)O[C@H]([C@](C)(O)C2(O)CC[C@@]3(O)[C@@H]4CC=C5CC=CC(=O)[C@]5(C)C4CC[C@]23C)C1 (some centres unmarked) | ADRB1 | agonist |  |  | EC50 | 35.5 µM |
